Published values pooled from the literature.
Parts stem from different laboratories: compare values within a part only.

Block 1
Target: Histone acetyltransferase KAT6A, winged helix 2, GST fusion (KAT6A, Homo sapiens, UniProt Q92794, residues 85-181)
Method: protein binding microarray
Molecule type: double-stranded DNA, one strand shown
Matrix: in vitro
Concentration: not given
Notes: 8-mer, flanks averaged, mean of 2 arrays, mostly near background
Reference: not given
Reading: higher = stronger binding
Construct (chain): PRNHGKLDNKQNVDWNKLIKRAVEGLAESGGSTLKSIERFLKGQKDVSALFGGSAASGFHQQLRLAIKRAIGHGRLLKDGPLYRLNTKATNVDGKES
| Sequence | E-score |
| --- | --- |
| AAACCCCG | 0.0199 |
| CCTCACCC | 0.105 |
| ACAATAAT | 0.0163 |
| CACGATTC | 0.0116 |
| ACGTCACG | -0.168 |
| GGGACTAA | 0.101 |
| GATCTTCC | 0.0482 |
| GGGAGTCA | -0.132 |
| CCACTCTA | -0.0671 |
| GCTCCACA | -0.064 |
| ACGCTCGC | 0.0279 |
| CGTTCAAG | -0.0276 |
| CATGCGGG | -0.0645 |
| CATGGCGC | 0.02 |
| CAAATAAA | 0.0125 |
| GACTCTGC | -0.0694 |
| CTGTCCGA | 0.143 |
| ACAGGTTG | -0.182 |
| GACGAAAC | 0.103 |
| CTCCGCAA | 0.0324 |
| CCAACATA | 0.152 |
| ACGAGCGT | -0.0893 |
| ATGATGTG | -0.104 |
| CTAAAGGA | 0.117 |
| CACGTGAG | -0.183 |

Block 2
Target: Sal-like protein 4, full length isoform A (SALL4, Homo sapiens, UniProt Q9UJQ4, residues 1-1053)
Chain of UniProt Q9UJQ4 (whole entry, looked up): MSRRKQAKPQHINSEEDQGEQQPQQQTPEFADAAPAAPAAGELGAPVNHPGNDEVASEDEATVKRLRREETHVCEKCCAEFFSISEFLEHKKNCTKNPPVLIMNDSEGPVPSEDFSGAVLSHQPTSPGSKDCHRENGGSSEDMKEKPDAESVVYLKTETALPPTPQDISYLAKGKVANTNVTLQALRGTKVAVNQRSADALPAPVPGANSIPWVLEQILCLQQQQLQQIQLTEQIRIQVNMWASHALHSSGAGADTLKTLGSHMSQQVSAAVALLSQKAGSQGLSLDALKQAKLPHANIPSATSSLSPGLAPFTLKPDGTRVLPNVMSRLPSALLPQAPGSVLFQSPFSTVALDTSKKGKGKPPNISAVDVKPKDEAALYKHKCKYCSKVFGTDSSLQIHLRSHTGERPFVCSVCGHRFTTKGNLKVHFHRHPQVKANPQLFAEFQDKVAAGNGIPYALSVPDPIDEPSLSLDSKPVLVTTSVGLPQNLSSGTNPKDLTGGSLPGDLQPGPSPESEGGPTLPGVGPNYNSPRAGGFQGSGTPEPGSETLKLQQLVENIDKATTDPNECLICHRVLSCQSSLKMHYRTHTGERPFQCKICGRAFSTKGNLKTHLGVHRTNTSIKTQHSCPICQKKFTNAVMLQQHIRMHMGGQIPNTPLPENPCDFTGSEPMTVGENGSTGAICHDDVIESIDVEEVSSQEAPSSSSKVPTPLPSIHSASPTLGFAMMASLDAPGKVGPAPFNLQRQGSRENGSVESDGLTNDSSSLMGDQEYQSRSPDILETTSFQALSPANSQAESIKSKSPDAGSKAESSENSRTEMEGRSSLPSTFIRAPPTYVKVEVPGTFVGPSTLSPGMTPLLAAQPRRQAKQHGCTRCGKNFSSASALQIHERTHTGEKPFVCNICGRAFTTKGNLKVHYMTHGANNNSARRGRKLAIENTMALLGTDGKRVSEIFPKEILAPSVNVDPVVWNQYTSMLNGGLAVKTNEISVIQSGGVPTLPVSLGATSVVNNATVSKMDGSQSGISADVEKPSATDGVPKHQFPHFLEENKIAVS
Method: universal PBM
Molecule type: double-stranded DNA, one strand shown
Matrix: in vitro
Concentration: 600 nM
Notes: 8-mer, flanks averaged, mean of replicates
Reading: higher = stronger binding
| Sequence | E-score |
| --- | --- |
| GAATAACA | 0.226 |
| GAGTTCTA | -0.0175 |
| AGGTACTA | 0.121 |
| ATCGTCAT | 0.231 |
| ATAAATCC | 0.25 |
| AAAGCACT | 0.0775 |
| ATATCGTG | 0.119 |
| CGAGTTGC | -0.169 |
| AAGCGTTG | -0.0496 |
| CCTGAGCA | -0.108 |
| ACTGCCGC | -0.249 |
| GAGAACAA | 0.132 |
| CCATGGAG | -0.178 |
| ACCTTGGA | -0.185 |
| AGTCTGAT | 0.0471 |
| CTGTGAGC | -0.104 |
| CGTAGTAA | 0.117 |
| AAAGAGAA | 0.11 |
| ACAAAGAT | 0.254 |
| GAGATGGC | -0.0598 |
| CATCCCTA | -0.106 |
| ATAGTCTA | 0.181 |
| CGATCAAC | -0.0308 |
| CTTCATGA | 0.115 |
| CCGGACAG | -0.289 |

Block 3
Target: Hepatocyte nuclear factor 3-alpha (Foxa1, Mus musculus, UniProt P35582, residues 1-468, full length assumed)
Chain of UniProt P35582 (whole entry, looked up): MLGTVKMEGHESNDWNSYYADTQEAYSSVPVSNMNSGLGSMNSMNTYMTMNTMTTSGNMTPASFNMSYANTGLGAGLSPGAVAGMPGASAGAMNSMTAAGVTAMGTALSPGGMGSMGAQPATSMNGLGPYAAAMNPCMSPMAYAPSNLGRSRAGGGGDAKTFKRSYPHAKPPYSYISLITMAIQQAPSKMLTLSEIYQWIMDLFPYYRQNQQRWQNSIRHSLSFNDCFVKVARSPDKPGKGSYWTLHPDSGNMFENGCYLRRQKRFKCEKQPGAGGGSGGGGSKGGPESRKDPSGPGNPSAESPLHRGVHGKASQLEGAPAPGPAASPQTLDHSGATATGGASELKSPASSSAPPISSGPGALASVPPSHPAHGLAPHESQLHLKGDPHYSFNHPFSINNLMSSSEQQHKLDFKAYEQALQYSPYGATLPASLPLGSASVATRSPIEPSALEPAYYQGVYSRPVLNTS
Method: EMSA with sequencing
Molecule type: double-stranded DNA, one strand shown
Matrix: in vitro
Concentration: 10 and 20 nM
Notes: whole designed probe, mean of two concentrations, ends assumed
Reference: negative control set to 0
Reading: higher = stronger binding
Constant ends, left off below: GTGAGCGGTGCCCATTGATGGGGAAC … TTTCACTGGGATCGTGGGGAC
| Sequence | normalised bound fraction [ratio] |
| --- | --- |
| CGGTGTAGGTTTATTGCCTACATTTATCATTGGAGAAAATGCTAAATTTCAGTTAGAGATTAGTGAAAATGAAATGTAATTTTCTCCTATTTTAGATTGCCCTTTGGGATCCTGGATGAAGAGCCCTGCATTACACTGGGCACAGTGGCTCATGCCTGCAATCCCAGCTACTAAGGAGGCTGAGGTAGGAGGA | -0.0732 |
| TAAGTACTGCTATTTTATTTTTTACCATAAAAGAGTTGTGTACTCTCACACAGTGTGCTTGTGCAATTTTACTACACAGACACAAGTGTGGCTAAATTACCCTTGTGAAGTAAGTTATTTGAAAGAAAACATTGCCTTATTCACATTGTATCTCCTACAATGTGTTGTGCATAATGAAACAATAAATATTTAT | 0.208 |
| ATCTTCCCCCTCTTCCTTGCCCCACCAGCTCACCTACGGGGGTTATTTGCACAAAGGAAAATAAATAAAGCCGGCATTCGTTAACGCAGTTCTGGCGCAAACTGCTGTTTGCTCTGGATCTAACATGGTCCTTTGGCGAGGCGTGGCTCCGGGAGAGCAAAGCACCGTGTCAGGGCCATGATCCGGGGTGGCC | 0.383 |
| GTGTCAAATAGTGATAAGATTGACAACATCTGGAGAAAATATTTAGGAATATGACATTTATATTTTTAACAAAAGTGCAATGCTATTGCAATGTAAACAGCAAGCAGTTGGGAAAATGGCCCTGAGTATTGCTATTATTTCTCTTACTTAAAATAAAATGTGAACTTTTATGGTGAAGTGTTTTCATTGCACA | 0.288 |
| GGGCAGCATGTTTAATTAATCTATTATCTTCTGTATTCCTTTGTGTCTGTCCCTGGGGAACTCTCTGGAAATGATCAGGCTTGCTAGTGCCTGTGTTTACCTAACTGAGTCAGAGCTTTGTTGAAGAAGAAATAAAGCCCAGAACTCCAGCAGCTAAGAGTTTTATCTCCTAACAACTGTCTGCCCCAAGCTG | 0.355 |

Block 4
Target: RNA binding protein fox-1 homolog 2, RRM domain, GST-SBP tag (RBFOX2, Homo sapiens, UniProt O43251-10, residues 100-194)
Method: RNA Bind-n-Seq
Molecule type: RNA
Matrix: in vitro
Concentration: 365 nM
Notes: natural RNA segment, single round, ends assumed
Reference: no-protein control
Reading: higher = stronger binding
Constant ends, left off below: GGGAGUUCUACAGUCCGACGAUC … UGGAAUUCUCGGGUGCCAA
Construct (chain): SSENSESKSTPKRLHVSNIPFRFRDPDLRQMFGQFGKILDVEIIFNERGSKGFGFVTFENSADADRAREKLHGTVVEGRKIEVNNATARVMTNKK
| Sequence | RBNS enrichment (R) |
| --- | --- |
| UAUUCUUGUGGUUAAAAACCUGCCUAAAUUAAAUUGGGCUUCAAUCACUGUAACCUGAUUCAUCCUGGGAUGUAAACCAUUCGAAGUCAGCUAAUUGGACUUUUAUGGCU | 0.261 |
| UUUGGUUUAUUUUCUUCCCAUGUCGCCCAGAGAUUACUUGUGUGUGUGCCAUUCUGCUCAAAACUAAAUGGUGGUCAGGUUCAAGUAAAGAAAAAUAAAACAAGCUGCAU | 0.321 |
| AGGAAGUUGCUAUUGGCCACAUAACUAGGCUUCCAUGUUGUACAGCAGUGAGUGGUUCCAUAUGGCUCUGUUCAAACUGAGCACAUUUUGCCUUUUUUCUUUCUUUUCUU | 0.513 |
| CGUGGACGGCCUUGCUUGCUGUAGCGUUGUAGGGGCCCUGCCUGCACUGCGGUUGUCCACGGUCACAUCUGCCCCAGUGCCUUUGUCCUUCCCUUGGGGCUUGCCGGCCA | 1.8 |
| CACCCACUGUUCCUGAGGACUCCUGCUGGGAAGUCCCAAGGGAUAGUUCUAGCCCUUCUGCCUGUGUAGACAGAAGCUAAACCACCAGUCUCUCUCGGAGGAAGCUGAGA | 0.261 |
| UGUAACCAGAUGAAUCAUGAUUUCUAAGACUUCUGAUCAAAAAUACUGUGAAAUAAAGAAUGUUAAUAACUUUGGACCUGGAGAUGAUUUGCCUUUCUGAACAUAAGAGA | 1.98 |
| UCCUUGUGAAGAUGAUAUACUAUUUUUGUUAAGCGUGUCUGUAUUUAUGUGUGAGGAGCUGCUGGCUUGCUGUGCGCGUGCCCGUGGAGAGCUGGUGCCCAGAGACUGAC | 1.37 |
| UCUGAGCCUCACUGCUGCUGCAAGGUGGGGAAACUGUAAGUGAACCCCUGUGGGUGCGGGGGAGGGUAUCCGGUGCGCAGGGAGGUGGCCAGCGCCCCCGGGCACUGCUG | 0.702 |

Repeated from above (block 2):
| Sequence | E-score |
| --- | --- |
| CGAGTTGC | -0.169 |
| AAGCGTTG | -0.0496 |
| CTGTGAGC | -0.104 |
| ATAAATCC | 0.25 |
